Measurements of several laboratories.
Each line is one published result; not all experiments were run side by side. Numbers after ± are the reported error.

SMILES | target | test | system | conditions | IC50
C/C=C1\NC(=O)[C@H](Cc2ccccc2)NC(=O)[C@H](C(C)C)NC(=O)[C@H](Cc2ccncc2)NC(=O)[C@H](CCC(N)=O)NC(=O)[C@H](Cc2ccc3ccccc3c2)NC(=O)[C@H]2CSC[C@@H](C(=O)N[C@@H](CO)C(=O)O)NC(=O)[C@H](CSC[C@H]3NC(=O)[C@H]([C@@H](C)CC)NC(=O)[C@H](NC(=O)[C@H](Cc4c[nH]cn4)NC(=O)[C@@H](NC(=O)[C@@H](NC(=O)CNC(=O)[C@H](CO)NC(=O)CNC(=O)CNC(=O)[C@@H](N)CCCCN)C(C)C)[C@@H](C)CC)[C@H](C)SC[C@H](NC(=O)[C@H](CCC(=O)O)NC(=O)[C@H](Cc4c[nH]cn4)NC3=O)C(=O)N[C@@H](CCCNC(=N)N)C(=O)N[C@@H](CCSC)C(=O)N[C@@H](CC(N)=O)C(=O)N2)NC1=O | PBP1b, Escherichia coli | transglycosylation, inhibitor |  | added: [14C]GlcNAc-labelled lipid II | 105 ± 34 µM
CC1OCC2OC(OC3C(N)CC(N)C(O)C3OC3OC(CO)C(OC4OC(CN)C(O)C(O)C4N)C3O)C(N)C(O)C2O1 (stereo not drawn) | ribosome with human cytosolic A site | luciferase translation, cell-free translation |  |  | 126 ± 71.7 µg/mL
C/C=C1\NC(=O)[C@H](Cc2ccccc2)NC(=O)[C@H](C(C)C)NC(=O)[C@H](Cc2ccncc2)NC(=O)[C@H](CCC(N)=O)NC(=O)[C@H](Cc2c[nH]c3ccccc23)NC(=O)[C@H]2CSC[C@@H](C(=O)N[C@@H](CO)C(=O)O)NC(=O)[C@H](CSC[C@H]3NC(=O)[C@H]([C@@H](C)CC)NC(=O)[C@H](NC(=O)[C@H](Cc4c[nH]cn4)NC(=O)[C@@H](NC(=O)[C@@H](NC(=O)CNC(=O)[C@H](CO)NC(=O)CNC(=O)CNC(=O)[C@@H](N)CCCCN)C(C)C)[C@@H](C)CC)[C@H](C)SC[C@H](NC(=O)[C@H](CCC(=O)O)NC(=O)[C@H](Cc4c[nH]cn4)NC3=O)C(=O)N[C@@H](CCCNC(=N)N)C(=O)N[C@@H](CCSC)C(=O)N[C@@H](CC(N)=O)C(=O)N2)NC1=O | PBP1b, Escherichia coli | transglycosylation, inhibitor |  | added: [14C]GlcNAc-labelled lipid II | 5.4 ± 1.2 µM
C=CCO[C@H]1[C@H](O)[C@@H](N)[C@@H](O[C@H]2[C@H](O[C@@H]3O[C@H](CO)[C@@H](O[C@H]4O[C@@H](CN)[C@@H](O)[C@H](O)[C@H]4N)[C@H]3O)[C@@H](O)[C@H](N)C[C@@H]2N)O[C@@H]1CO | Mycobacterium smegmatis ribosome wild type | translation, cell-free luciferase synthesis |  |  | 0.14 ± 0.04 µg/mL
COc1ccc2ccc3c(c2c1)C=[N+]1C2CCCCC2[N+]2=Cc4ccc(OCCN5CCCCC5)cc4[O][Au-]21[O]3.F[P-](F)(F)(F)(F)F (stereo not drawn) | Klebsiella pneumoniae glutathione reductase | cellular enzyme activity, inhibitor | Klebsiella pneumoniae, carbapenem-resistant | 4 h | 2.26 µM
CCCCCCCCC(=O)NCc1ccc(O)c(OC)c1 | mAb 5-3H1 | antibody binding, indirect competitive ELISA |  | added: coating antigen 5-OVA | 0.00546 µg/mL
COc1ccc2ccc3c(c2c1)C=[N+]1C2CCCCC2[N+]2=Cc4cccc(OC)c4[O][Au-]21[O]3.F[P-](F)(F)(F)(F)F (stereo not drawn) | Klebsiella pneumoniae glutathione reductase | inhibitor | carbapenem-resistant | added: GSSG and NADPH | 11.6 µM
NC[C@@H]1O[C@H](O[C@H]2[C@@H](O)[C@H](O[C@@H]3[C@@H](O)[C@H](N)C[C@H](N)[C@H]3O[C@H]3O[C@@H]4COCO[C@H]4[C@H](O)[C@H]3N)O[C@@H]2CO)[C@H](N)[C@@H](O)[C@@H]1O | Mycobacterium smegmatis ribosome wild type | translation, cell-free luciferase synthesis |  |  | 0.89 ± 0.24 µg/mL
C/C=C1\NC(=O)[C@H](Cc2ccccc2)NC(=O)[C@H](C(C)C)NC(=O)[C@H](Cc2ccccc2)NC(=O)[C@H](CCC(N)=O)NC(=O)[C@H](Cc2c[nH]c3ccccc23)NC(=O)[C@H]2CSC[C@@H](C(=O)N[C@@H](CO)C(=O)O)NC(=O)[C@H](CSC[C@H]3NC(=O)[C@H]([C@@H](C)CC)NC(=O)[C@H](NC(=O)[C@H](Cc4c[nH]cn4)NC(=O)[C@@H](NC(=O)[C@@H](NC(=O)CNC(=O)[C@H](CO)NC(=O)CNC(=O)CNC(=O)[C@@H](N)CCCCN)C(C)C)[C@@H](C)CC)[C@H](C)SC[C@H](NC(=O)[C@H](CCC(=O)O)NC(=O)[C@H](Cc4c[nH]cn4)NC3=O)C(=O)N[C@@H](CC(N)=O)C(=O)N[C@@H](CCSC)C(=O)N[C@@H](CC(N)=O)C(=O)N2)NC1=O | PBP1b, Escherichia coli | transglycosylation, inhibitor |  | added: [14C]GlcNAc-labelled lipid II | 12 ± 2.3 µM
